Measurements collected from several papers.
Numbered parts are unrelated; each lists some results of a single study.
Sequence of UniProt P37173 (whole entry, looked up): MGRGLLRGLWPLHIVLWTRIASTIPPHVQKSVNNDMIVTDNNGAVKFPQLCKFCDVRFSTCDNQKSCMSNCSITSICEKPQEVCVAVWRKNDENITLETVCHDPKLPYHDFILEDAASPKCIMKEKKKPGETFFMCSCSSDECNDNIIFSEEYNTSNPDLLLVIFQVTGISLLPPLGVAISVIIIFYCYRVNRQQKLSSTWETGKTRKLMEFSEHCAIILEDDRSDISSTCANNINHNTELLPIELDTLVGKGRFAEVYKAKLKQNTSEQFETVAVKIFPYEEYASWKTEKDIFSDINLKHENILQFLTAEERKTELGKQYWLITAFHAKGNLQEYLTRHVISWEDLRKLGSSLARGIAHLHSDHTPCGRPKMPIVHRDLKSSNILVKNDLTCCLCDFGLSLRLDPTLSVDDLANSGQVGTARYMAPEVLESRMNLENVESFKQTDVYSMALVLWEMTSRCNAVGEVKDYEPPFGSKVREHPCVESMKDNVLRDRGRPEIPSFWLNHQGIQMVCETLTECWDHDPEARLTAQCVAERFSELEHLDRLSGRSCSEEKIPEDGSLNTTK
Sequence of UniProt O94804 (whole entry, looked up): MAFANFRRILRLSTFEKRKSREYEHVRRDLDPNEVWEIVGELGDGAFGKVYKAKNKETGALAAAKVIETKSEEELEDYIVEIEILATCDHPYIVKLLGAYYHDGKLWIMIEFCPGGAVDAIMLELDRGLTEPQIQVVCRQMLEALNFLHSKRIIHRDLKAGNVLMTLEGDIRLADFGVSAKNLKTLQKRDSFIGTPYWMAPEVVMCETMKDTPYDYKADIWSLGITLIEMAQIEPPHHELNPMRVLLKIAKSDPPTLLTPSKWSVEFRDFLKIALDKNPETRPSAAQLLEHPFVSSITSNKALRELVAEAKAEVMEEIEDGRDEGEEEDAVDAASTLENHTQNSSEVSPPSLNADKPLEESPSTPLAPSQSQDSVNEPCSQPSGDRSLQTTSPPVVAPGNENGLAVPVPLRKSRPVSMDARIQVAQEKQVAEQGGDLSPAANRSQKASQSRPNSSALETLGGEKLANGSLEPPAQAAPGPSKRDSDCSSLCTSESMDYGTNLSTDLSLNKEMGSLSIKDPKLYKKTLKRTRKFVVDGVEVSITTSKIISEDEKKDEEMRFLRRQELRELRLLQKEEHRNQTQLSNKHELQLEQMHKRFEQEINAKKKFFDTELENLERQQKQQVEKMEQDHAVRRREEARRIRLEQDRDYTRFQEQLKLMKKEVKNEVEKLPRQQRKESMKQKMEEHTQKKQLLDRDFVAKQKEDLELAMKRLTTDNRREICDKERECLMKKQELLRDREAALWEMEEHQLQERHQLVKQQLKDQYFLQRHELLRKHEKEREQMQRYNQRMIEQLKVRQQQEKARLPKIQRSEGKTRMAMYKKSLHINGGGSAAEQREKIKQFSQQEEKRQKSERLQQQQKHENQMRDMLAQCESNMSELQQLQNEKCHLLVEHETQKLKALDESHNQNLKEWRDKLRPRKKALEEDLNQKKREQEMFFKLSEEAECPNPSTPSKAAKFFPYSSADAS
Sequence of UniProt O75385 (whole entry, looked up): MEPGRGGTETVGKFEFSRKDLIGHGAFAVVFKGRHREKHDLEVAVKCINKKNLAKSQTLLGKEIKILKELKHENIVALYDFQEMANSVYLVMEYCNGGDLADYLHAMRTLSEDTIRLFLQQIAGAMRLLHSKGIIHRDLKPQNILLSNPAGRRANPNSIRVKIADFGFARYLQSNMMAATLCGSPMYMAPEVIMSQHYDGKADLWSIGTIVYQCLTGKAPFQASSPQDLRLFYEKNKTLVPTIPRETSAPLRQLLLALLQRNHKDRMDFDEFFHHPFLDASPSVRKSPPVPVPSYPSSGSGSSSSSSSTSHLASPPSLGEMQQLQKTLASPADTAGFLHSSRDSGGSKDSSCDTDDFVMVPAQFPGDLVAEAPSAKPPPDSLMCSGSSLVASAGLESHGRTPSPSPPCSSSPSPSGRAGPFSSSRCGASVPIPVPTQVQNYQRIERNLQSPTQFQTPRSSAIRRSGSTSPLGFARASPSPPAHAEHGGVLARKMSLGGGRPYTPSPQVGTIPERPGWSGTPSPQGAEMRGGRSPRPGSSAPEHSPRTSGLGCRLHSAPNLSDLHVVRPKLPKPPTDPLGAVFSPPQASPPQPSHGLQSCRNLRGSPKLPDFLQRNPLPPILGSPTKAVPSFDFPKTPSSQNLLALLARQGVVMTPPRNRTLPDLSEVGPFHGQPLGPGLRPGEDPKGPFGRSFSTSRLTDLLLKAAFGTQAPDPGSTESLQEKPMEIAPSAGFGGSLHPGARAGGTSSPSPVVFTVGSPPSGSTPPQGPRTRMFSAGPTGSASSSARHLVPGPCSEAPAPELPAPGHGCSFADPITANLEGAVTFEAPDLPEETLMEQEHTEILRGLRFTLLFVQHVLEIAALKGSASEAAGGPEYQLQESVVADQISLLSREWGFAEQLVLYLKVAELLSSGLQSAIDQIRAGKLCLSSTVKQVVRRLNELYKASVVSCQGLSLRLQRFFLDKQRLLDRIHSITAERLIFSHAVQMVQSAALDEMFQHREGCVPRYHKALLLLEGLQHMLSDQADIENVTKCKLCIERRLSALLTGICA
Sequence of UniProt Q13976 (whole entry, looked up): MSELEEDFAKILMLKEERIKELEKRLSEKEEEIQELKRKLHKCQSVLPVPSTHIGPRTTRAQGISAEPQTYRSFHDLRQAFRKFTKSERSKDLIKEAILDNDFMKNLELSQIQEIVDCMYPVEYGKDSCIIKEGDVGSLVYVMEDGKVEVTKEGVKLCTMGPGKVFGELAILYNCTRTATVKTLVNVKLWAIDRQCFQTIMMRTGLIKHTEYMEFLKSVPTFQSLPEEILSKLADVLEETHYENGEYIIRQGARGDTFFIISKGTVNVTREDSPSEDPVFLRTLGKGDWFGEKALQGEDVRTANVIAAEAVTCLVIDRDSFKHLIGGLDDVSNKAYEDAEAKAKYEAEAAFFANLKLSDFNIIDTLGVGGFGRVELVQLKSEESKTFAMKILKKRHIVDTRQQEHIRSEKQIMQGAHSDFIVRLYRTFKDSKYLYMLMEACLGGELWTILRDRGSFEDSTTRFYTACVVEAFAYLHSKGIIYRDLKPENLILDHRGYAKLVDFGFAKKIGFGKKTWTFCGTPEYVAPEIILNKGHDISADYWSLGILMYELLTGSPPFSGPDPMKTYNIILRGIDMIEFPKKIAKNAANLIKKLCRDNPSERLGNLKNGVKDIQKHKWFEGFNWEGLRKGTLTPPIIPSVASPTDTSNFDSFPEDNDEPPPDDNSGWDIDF
Sequence of UniProt P07948 (whole entry, looked up): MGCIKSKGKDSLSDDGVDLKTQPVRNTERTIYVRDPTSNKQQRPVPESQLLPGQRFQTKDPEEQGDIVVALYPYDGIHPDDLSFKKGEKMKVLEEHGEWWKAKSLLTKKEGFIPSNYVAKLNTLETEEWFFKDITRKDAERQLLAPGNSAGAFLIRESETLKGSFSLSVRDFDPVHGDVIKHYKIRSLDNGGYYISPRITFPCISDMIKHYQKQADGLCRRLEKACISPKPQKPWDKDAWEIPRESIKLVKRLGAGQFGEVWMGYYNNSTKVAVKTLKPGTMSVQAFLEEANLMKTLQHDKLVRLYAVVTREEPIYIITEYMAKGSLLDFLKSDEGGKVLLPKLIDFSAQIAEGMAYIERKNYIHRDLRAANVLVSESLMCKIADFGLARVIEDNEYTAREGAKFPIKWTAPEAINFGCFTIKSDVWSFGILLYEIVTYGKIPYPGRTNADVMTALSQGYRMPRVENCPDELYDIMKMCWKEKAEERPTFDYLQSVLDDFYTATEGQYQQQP
Sequence of UniProt Q14164 (whole entry, looked up): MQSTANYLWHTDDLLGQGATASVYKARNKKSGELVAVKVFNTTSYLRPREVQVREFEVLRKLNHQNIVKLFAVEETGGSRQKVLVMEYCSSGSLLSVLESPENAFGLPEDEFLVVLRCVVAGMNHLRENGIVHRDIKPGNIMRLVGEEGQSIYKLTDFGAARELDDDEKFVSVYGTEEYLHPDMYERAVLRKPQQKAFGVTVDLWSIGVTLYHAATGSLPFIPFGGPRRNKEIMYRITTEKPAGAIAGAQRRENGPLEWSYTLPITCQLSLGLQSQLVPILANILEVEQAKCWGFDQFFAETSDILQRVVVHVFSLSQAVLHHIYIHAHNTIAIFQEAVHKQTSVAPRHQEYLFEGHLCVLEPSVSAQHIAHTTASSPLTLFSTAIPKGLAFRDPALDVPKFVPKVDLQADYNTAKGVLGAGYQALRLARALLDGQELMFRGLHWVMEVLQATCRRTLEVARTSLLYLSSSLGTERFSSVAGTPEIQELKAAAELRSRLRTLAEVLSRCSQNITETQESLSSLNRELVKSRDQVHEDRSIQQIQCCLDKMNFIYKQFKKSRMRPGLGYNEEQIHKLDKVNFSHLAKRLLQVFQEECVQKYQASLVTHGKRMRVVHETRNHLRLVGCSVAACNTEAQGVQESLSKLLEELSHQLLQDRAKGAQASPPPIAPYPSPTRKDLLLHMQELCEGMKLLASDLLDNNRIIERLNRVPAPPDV
Sequence of UniProt P36897 (whole entry, looked up): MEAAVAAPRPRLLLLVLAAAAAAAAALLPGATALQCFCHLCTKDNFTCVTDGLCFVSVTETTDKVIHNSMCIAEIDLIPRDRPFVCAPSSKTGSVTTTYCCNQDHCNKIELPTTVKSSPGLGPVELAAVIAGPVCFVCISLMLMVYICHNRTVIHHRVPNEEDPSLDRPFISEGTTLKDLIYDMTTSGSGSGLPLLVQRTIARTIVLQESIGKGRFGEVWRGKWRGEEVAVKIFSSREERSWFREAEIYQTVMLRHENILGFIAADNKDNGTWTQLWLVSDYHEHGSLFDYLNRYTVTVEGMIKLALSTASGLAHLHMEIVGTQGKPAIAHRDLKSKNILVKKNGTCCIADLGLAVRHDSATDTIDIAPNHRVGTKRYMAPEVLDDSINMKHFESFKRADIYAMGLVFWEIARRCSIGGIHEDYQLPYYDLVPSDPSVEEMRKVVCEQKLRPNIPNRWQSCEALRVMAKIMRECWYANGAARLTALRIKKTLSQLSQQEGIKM

Set 1 — technique: competition with immobilised ligand; concentration: 1 µM
SMILES: CCCCN(CCCC)C(=O)CN1C[C@H](c2cc(OC)c3c(c2)OCO3)[C@@H](C(=O)O)[C@@H]1CC(C)(C)CCC
target	test	remaining binding
BMX (Homo sapiens, UniProt P51813)	cell-free assay	100%
LTK (Homo sapiens, UniProt P29376)	cell-free assay	100%
EPHA2 (Homo sapiens, UniProt P29317)	cell-free assay	100%
CDK11A (Homo sapiens, UniProt Q9UQ88)	binding	100%
TGFBR2 (Homo sapiens, UniProt P37173)	cell-free assay	100%
Tyrosine-protein kinase ABL1, phosphorylated (ABL1, Homo sapiens, UniProt P00519)	cell-free assay	79.8%
DYRK1A (Homo sapiens, UniProt Q13627)	cell-free assay	73.1%
FLT3 (Homo sapiens, UniProt P36888, F691L/ITD)	cell-free assay	90.6%
STK4 (Homo sapiens, UniProt Q13043)	cell-free assay	100%
TNK1 (Homo sapiens, UniProt Q13470)	cell-free assay	100%
GAK (Homo sapiens, UniProt O14976)	cell-free assay	100%
STK3 (Homo sapiens, UniProt Q13188)	cell-free assay	96.1%
RAF1 (Homo sapiens, UniProt P04049)	cell-free assay	100%
ULK1 (Homo sapiens, UniProt O75385)	cell-free assay	79.4%
FYN (Homo sapiens, UniProt P06241)	cell-free assay	100%

Set 2 — read-out: enzyme activity; mode: inhibitor; concentration: 0.5 µM; reference: control
SMILES: CC(C)(C)c1nc2c3cc[nH]c(=O)c3c3cc(F)ccc3c2[nH]1
target	remaining activity [%]
Tyrosine-protein kinase Lyn, isoform B (LYN, Homo sapiens, UniProt P07948)	95.9
STK10 (Homo sapiens, UniProt O94804)	72.6
PRKCA (Homo sapiens, UniProt P17252)	65.6
TGFBR2 (Homo sapiens, UniProt P37173)	58.2
CAMKK2 (Homo sapiens, UniProt Q96RR4)	69.4
TGFBR1 (Homo sapiens, UniProt P36897)	102
DAPK2 (Homo sapiens, UniProt Q9UIK4)	18
MAPK9 (Homo sapiens, UniProt P45984)	31.1
cGMP-dependent protein kinase 1, isoform beta (PRKG1, Homo sapiens, UniProt Q13976)	52.3
IKBKB (Homo sapiens, UniProt O14920)	52.1
PRKACA (Homo sapiens, UniProt P17612)	97.9
OXSR1 (Homo sapiens, UniProt O95747)	100
CAMK2D (Homo sapiens, UniProt Q13557)	59.4
GRK3 (Homo sapiens, UniProt P35626)	104
STK11 (Homo sapiens, UniProt Q15831)	58.4
DAPK1 (Homo sapiens, UniProt P53355)	3.03
Protein kinase C beta type, isoform beta-I (PRKCB, Homo sapiens, UniProt P05771)	91.5
IKBKE (Homo sapiens, UniProt Q14164)	25.4
STK39 (Homo sapiens, UniProt Q9UEW8)	93.8
CHEK2 (Homo sapiens, UniProt O96017)	0.717
MAP3K3 (Homo sapiens, UniProt Q99759)	61.1
Cyclin-dependent kinase 4, with cyclin D1 (CDK4, Homo sapiens, UniProt P11802)	85.6

Set 3 — cell line: A-375; concentration: 100 µM; time: 60 h
SMILES	viability [%]
CS(=O)(=O)c1ccc(C2=C(c3ccccc3)C(=O)OC2)cc1	102
O=c1cc(-c2ccc(O)c(O)c2)oc2cc(O)cc(O)c12	13.4
CCCCc1ncc(/C=C(\Cc2cccs2)C(=O)O)n1Cc1ccc(C(=O)O)cc1	102

Set 4 — host: human; sample: microsomes or S9; concentration: 2 µM; time: 0.5 h
Structure (SMILES)	remaining compound
COCCN(C)S(=O)(=O)c1cc2c(cc1Oc1ccc(Cl)cc1)Oc1ccc(C)cc1NC2=O	0.464%
Cc1ccc2ncc(-c3ccc(CN(C)C)cn3)cc2c1	85.9%
Cc1c(C(=O)OC(C)C)sc2ncn(CC(=O)O)c(=O)c12	86.2%
Nc1cc(C(=O)OCCC2CCOC2=O)cnc1Cl (stereo not shown)	2.77%
Fc1cnc(NC2CCN(C3CCOC3)CC2)nc1 (stereo not shown)	98.4%
CCCc1c(C)[nH]c2[nH]n(-c3ccccc3)c(=O)c2c1=O	79.3%
Cc1ncn(-c2cc(NCCNC(=O)C(C)(C)C)ncn2)c1C	39.3%
CCN1CCN(C2(CNc3oc(-c4ccc(Br)o4)nc3C#N)CCCCC2)CC1	53.2%
COC(=O)Cc1cc(=O)n2nc(C)c(-c3ccc(F)cc3)c2[nH]1	90.3%
O=C1CC2CS(=O)(=O)CC2N1C1CCCCC1 (stereo not shown)	93.8%
CCc1nc(C)c2c(n1)N(CCc1c(C)noc1C)C(=O)CC2	0.888%
COCCNC(=O)NC1(c2nc(C)no2)CCCCC1	86.8%

Some of these lines once more (set 2):
target	remaining activity [%]
PRKACA (Homo sapiens, UniProt P17612)	97.9
OXSR1 (Homo sapiens, UniProt O95747)	100
CAMK2D (Homo sapiens, UniProt Q13557)	59.4
GRK3 (Homo sapiens, UniProt P35626)	104
STK11 (Homo sapiens, UniProt Q15831)	58.4
DAPK1 (Homo sapiens, UniProt P53355)	3.03
